Published values gathered from unrelated publications.
Every numbered part comes from another study and shows a few of its results, in no order.

Sample 1 — technique: protein-binding microarray; molecule type: double-stranded DNA, one strand shown; matrix: in vitro; concentration: not given; reading: higher = stronger binding
Target: Protein C-ets-1 (ETS1, Homo sapiens, UniProt P14921, residues 1-441, full length assumed)
Setting: k-mer, scored over probes, only values ≥0.25
Target sequence (chain): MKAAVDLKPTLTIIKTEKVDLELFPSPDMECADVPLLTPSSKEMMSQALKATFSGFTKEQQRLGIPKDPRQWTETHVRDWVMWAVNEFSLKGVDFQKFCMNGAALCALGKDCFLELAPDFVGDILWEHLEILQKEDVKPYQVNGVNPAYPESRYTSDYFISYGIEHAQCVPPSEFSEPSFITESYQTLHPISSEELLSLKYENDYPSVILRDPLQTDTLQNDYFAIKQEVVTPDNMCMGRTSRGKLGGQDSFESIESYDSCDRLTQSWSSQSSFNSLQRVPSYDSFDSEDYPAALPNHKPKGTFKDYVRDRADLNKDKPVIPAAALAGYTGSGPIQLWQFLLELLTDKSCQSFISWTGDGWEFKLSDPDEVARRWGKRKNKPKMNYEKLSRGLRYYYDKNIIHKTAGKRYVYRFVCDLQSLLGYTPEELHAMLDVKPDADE
| Strand | E-score |
| --- | --- |
| AAGGAACT | 0.254 |
| CGGATGTC | 0.478 |
| ATATCCGC | 0.462 |
| CCCGGTCG | 0.304 |

Sample 2 — technique: universal PBM; molecule type: double-stranded DNA, one strand shown; matrix: in vitro; concentration: not given; reading: higher = stronger binding
Target: Sal-like protein 4, full length isoform B (SALL4, Homo sapiens, UniProt Q9UJQ4-2, residues 1-616)
Setting: 8-mer, flanks averaged, mean of replicates
| Strand | E-score |
| --- | --- |
| GTTAAAAC | 0.113 |
| AGGTTCCC | -0.24 |
| CGCATGAC | -0.197 |
| GTGTGAGA | 0.0305 |

Sample 3 — technique: protein-binding microarray; molecule type: double-stranded DNA, one strand shown; matrix: in vitro; concentration: 940 nM top; setting: 60-bp whole probe; with: salmon DNA 0.4 mg/ml; relative to: random background probes; reading: higher = stronger binding; constant ends, left off below: GCCTAGCAC … GTCTTGATTCGCTTGACGCTGCTG
Target: Interferon regulatory factor 5, full length, phosphomimetic (IRF5, Homo sapiens, UniProt Q13568-2, residues 1-514, S451D/S453D/S456D/S462D)
| Strand | fitted relative affinity |
| --- | --- |
| GACGGTTTCTGGACTGGGGACGTGCTA | 1.65 z-score |
| TTAGGACTGCATATCCTTTAGTGCTAG | -0.862 z-score |
| CATGAACTGTTTCTTGAAAAGTGCTAG | -0.15 z-score |
| TTAGAACTGGGGCTTCGATTAGTGCTA | -0.0746 z-score |
| CTAGGTATCGGTTTCGGTTAGTGCTAG | 11.8 z-score |
| TGGAAACTCGTATGTGACCTTGTGCTA | -0.188 z-score |

Other studies, line by line
| Substance | target | assay | system | conditions | how to read | endpoint | value |
| --- | --- | --- | --- | --- | --- | --- | --- |
| PhoQ, residues 284 288 289 292 302 303 TSTLRA | PhoP, residues 12 14 15 18 19 NFCKL (Escherichia coli, UniProt P23836) | Sort-seq, refers to: YFP reporter | E. coli | PhoQ-PhoP variant library, with: 10 µM Mg2+ | relative to: high Mg2+ state, higher = stronger signaling | fold induction | 5.43 |

Repeated from above (sample 1):
| Strand | E-score |
| --- | --- |
| CCCGGTCG | 0.304 |
